Assay results from different studies.
Every numbered part comes from another study and shows a few of its results, in no order.
UniProt Q9XID4, sequence (whole entry, looked up): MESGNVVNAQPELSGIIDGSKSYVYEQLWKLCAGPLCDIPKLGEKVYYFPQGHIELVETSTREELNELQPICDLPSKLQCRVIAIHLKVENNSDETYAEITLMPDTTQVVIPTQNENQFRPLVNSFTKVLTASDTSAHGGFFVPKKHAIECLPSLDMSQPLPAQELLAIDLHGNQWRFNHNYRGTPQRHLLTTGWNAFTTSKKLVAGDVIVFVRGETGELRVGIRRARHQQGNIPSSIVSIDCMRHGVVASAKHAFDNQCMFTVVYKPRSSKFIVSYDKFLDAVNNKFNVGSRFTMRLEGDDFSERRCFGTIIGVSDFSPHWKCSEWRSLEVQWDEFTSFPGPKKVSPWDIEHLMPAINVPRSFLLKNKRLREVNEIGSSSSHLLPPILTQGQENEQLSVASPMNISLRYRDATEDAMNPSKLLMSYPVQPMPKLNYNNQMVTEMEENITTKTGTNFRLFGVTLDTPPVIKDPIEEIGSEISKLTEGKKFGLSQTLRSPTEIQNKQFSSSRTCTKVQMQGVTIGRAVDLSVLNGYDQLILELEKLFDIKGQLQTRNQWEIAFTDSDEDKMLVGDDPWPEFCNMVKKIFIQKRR
UniProt P11309, sequence (whole entry, looked up): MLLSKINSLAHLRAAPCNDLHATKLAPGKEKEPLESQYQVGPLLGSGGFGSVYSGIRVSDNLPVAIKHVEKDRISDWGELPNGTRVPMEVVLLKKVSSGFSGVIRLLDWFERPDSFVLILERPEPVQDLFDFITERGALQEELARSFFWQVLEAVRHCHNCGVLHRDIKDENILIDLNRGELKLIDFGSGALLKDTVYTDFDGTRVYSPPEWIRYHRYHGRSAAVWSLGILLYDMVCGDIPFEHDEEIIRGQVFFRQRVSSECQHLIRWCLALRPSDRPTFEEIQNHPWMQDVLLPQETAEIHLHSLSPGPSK
UniProt Q9C5X0, sequence (whole entry, looked up): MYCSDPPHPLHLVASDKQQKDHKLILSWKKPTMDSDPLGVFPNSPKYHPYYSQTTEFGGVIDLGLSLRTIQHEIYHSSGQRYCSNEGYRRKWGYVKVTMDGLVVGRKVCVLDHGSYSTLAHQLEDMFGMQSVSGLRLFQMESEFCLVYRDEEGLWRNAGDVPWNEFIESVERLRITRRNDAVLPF
UniProt O24407, sequence (whole entry, looked up): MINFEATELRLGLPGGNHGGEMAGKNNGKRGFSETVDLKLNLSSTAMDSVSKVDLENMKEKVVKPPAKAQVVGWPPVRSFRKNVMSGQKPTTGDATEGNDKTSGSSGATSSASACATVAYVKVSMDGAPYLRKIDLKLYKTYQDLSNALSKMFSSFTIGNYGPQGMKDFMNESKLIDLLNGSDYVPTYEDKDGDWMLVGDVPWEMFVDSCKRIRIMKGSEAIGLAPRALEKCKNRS
UniProt Q9ZTX9, sequence (whole entry, looked up): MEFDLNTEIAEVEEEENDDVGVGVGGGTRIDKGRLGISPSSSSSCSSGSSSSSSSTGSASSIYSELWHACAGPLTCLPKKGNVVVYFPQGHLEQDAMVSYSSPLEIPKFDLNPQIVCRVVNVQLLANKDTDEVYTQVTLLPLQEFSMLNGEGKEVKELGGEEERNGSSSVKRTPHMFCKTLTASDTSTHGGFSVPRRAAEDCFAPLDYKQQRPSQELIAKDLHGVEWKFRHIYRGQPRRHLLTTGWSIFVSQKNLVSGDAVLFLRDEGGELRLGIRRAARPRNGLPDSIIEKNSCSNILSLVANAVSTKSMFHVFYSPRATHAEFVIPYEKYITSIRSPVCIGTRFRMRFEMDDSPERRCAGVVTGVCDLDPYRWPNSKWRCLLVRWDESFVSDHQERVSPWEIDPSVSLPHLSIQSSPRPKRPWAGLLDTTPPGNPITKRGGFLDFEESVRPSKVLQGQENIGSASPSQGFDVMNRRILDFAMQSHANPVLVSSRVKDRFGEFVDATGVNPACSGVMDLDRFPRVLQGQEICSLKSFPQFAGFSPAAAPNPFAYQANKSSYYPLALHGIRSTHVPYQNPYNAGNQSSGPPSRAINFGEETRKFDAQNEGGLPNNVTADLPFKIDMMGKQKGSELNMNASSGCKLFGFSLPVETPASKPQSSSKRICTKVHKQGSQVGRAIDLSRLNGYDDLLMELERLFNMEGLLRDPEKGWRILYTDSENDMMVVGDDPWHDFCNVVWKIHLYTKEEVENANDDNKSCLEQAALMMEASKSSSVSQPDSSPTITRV
UniProt Q9ZTX8, sequence (whole entry, looked up): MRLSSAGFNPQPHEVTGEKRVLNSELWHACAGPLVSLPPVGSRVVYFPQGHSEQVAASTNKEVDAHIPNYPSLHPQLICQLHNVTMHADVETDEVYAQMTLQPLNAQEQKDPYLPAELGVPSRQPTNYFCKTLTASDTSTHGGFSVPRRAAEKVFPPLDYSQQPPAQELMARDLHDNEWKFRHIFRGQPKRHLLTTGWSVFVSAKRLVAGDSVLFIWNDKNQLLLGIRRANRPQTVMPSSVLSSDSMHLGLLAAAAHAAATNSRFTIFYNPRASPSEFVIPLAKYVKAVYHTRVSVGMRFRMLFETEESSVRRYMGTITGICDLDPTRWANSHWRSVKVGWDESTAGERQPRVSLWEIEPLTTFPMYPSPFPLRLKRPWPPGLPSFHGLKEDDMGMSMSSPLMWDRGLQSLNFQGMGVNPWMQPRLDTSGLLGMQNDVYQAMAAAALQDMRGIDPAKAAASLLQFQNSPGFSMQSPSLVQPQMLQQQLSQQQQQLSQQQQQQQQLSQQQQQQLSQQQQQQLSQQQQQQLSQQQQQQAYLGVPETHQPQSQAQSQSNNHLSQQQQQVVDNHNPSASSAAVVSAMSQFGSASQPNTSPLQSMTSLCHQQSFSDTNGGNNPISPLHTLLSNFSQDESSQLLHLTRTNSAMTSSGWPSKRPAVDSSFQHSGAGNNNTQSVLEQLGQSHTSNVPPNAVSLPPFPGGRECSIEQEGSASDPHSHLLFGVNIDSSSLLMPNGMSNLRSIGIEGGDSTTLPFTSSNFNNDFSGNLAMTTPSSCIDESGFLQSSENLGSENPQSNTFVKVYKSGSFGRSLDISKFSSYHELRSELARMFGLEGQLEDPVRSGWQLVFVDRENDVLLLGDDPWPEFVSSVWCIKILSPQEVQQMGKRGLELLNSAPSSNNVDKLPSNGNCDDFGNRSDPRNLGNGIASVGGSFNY
UniProt Q9FKM7, sequence (whole entry, looked up): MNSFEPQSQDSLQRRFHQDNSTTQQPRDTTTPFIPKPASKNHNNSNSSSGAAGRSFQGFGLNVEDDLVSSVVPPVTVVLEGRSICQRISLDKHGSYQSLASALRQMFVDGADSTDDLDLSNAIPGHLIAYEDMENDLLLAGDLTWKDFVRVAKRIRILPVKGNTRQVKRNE
UniProt Q38832, sequence (whole entry, looked up): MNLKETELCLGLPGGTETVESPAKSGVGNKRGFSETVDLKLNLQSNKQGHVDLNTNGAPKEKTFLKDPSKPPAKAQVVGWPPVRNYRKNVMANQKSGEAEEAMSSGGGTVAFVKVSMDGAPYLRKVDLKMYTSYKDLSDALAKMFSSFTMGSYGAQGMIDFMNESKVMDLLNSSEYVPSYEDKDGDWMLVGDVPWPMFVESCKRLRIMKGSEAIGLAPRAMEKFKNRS
UniProt Q9XFM0, sequence (whole entry, looked up): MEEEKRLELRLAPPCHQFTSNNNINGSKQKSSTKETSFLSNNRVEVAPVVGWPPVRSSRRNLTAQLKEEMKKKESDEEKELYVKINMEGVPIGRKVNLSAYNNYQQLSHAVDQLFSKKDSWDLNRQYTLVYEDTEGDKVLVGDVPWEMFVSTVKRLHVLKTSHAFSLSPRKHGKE

Sample 1
Target: Hepatocyte nuclear factor 3-beta, forkhead domain (FOXA2, Homo sapiens, UniProt Q9Y261, residues 142-269)
Technique: protein-binding microarray
Form: double-stranded DNA, one strand shown
Matrix: in vitro
Concentration: not given
Notes: k-mer, scored over probes, only values ≥0.25
Direction: higher = stronger binding
Endpoint: E-score
Residues (chain): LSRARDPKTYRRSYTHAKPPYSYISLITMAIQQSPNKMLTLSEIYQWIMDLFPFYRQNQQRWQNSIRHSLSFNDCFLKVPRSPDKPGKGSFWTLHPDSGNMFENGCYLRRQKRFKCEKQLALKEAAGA
AATACTAC: 0.299
ACTTGTAA: 0.251
AAACATAC: 0.277
GTCCATTA: 0.331
AAATATTA: 0.304
AGTTTGTA: 0.283
AGTTCATA: 0.305
ATATAGGA: 0.257

Sample 2
Target: Prothrombin, mature alpha-thrombin (F2, Homo sapiens, UniProt P00734)
Technique: aptamer microarray, sandwich
Form: DNA with 2'F-ANA
Matrix: in vitro
Concentration: 200 nM
Notes: whole 15-mer aptamer, many near background
Added: Cy3 exosite-II aptamer, 400 nM
Direction: higher = stronger binding
Endpoint: mean fluorescence intensity
Strand: GGTTGGTGTGGTTGG
2'F-ANA at 5 7 10 11 13: 46.9 a.u.
2'F-ANA at 1 2 5 6 7 8 9 12 13: 78.2 a.u.
2'F-ANA at 1 3 11 14: 81.5 a.u.
2'F-ANA at 1 2 3 7 9 10 11 12 13 14: 54 a.u.
2'F-ANA at 5 8 9 10 12 13: 48.5 a.u.
2'F-ANA at 1 2 3 10 11 12 14: 62.1 a.u.
2'F-ANA at 2 5 7 9 14 15: 51.1 a.u.
2'F-ANA at 2 4 6 7 8 11 13: 180 a.u.

Sample 3
Molecule: IAA9 (Arabidopsis thaliana, UniProt Q38827)
UniProt Q38827, sequence (whole entry, looked up): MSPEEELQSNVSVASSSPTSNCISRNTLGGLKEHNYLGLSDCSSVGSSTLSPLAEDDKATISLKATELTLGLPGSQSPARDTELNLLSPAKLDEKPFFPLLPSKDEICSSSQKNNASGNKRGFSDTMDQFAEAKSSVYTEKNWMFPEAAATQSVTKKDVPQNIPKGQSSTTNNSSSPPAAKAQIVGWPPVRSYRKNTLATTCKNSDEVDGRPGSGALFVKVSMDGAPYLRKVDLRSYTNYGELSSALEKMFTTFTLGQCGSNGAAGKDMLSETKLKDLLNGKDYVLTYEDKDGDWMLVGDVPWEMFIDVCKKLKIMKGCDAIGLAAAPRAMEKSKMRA
Technique: two-hybrid
Baseline: out of 2 tests
Direction: higher = firmer interaction
Endpoint: positive tests
ARF12 500-593 (Arabidopsis thaliana, UniProt Q9XID4): 0
ARF6 790-935 (Arabidopsis thaliana, UniProt Q9ZTX8): 2
ARF4 660-788 (Arabidopsis thaliana, UniProt Q9ZTX9): 0
IAA33 (Arabidopsis thaliana, UniProt Q9FKM7): 0
IAA14 (Arabidopsis thaliana, UniProt Q38832): 2
IAA34 (Arabidopsis thaliana, UniProt Q9C5X0): 2
IAA28 (Arabidopsis thaliana, UniProt Q9XFM0): 2
IAA16 (Arabidopsis thaliana, UniProt O24407): 2

Further values, each from its own experiment
C[C@@H]1CCN(C(=O)CC#N)C[C@@H]1N(C)c1ncnc2[nH]ccc12  remaining activity (Serine/threonine-protein kinase pim-1 (PIM1, Homo sapiens, UniProt P11309); enzyme activity, inhibitor; 0.5 µM; baseline: control): 102%

Excerpt of the above (sample 3):
ARF4 660-788 (Arabidopsis thaliana, UniProt Q9ZTX9): 0
IAA33 (Arabidopsis thaliana, UniProt Q9FKM7): 0
IAA14 (Arabidopsis thaliana, UniProt Q38832): 2
